Results collected from several papers.
Each numbered part is a random draw from the data of one study; scales do not carry over between parts.

Series 1 — technique: competition protein-binding microarray; form: double-stranded DNA, one strand shown; medium: in vitro; concentration: 2 µM; added: Pho4 competitor, 0.05 µM; reading: higher = stronger binding; shared flanks, not repeated: … GTCTTGATTCGCTTGACGCTGCTG
Target: Centromere-binding protein 1, full length, His-tagged (CBF1, Saccharomyces cerevisiae, UniProt P17106, residues 1-351)
Chain of UniProt P17106 (whole entry, looked up): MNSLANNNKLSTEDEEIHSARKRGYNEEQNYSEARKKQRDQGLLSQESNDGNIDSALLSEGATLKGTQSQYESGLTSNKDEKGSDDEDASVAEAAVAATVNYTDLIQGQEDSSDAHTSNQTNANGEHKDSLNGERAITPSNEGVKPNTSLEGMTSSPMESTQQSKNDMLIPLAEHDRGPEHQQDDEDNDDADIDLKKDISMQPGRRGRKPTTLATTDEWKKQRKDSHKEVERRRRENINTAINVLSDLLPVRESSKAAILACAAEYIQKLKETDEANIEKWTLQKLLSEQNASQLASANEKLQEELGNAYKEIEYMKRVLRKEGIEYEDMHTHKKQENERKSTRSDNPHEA
Setting: whole 60-bp probe, lowest competitor level
With `GCCGCTTCTTTATGCACCGTGGAGTAATTACCGAAT` the fluorescence intensity was 83.6 a.u.
`CATCGGCCCAACTTGATCATGCAATTAGCAAGCAAC` gave a fluorescence intensity of 89.9 a.u.
`TAGTTTGCTGTCCGTCACGTGCTAAAGGGTCTGATA` has a fluorescence intensity of 7250 a.u.
`TAATCTGATGATCGGCACGTATAGGTCTGCGACCTT` gave a fluorescence intensity of 65 a.u.
For `TTAACTGCCCAAGGACACATGCCCTGGGCTGGAACC`, the fluorescence intensity was 59.8 a.u.
The fluorescence intensity of `GCAAACTTGTTATTGCACGTTAAGTTTTGGGCTCAA` is reported as 120 a.u.
For `CCTGCCAAGGGTAACCACGTGCTGGGAGATTTGCAG`, the fluorescence intensity was 1810 a.u.
For `TGCGCAACAACTTGCCATGTGGGTGTATGTCTAGAA`, the fluorescence intensity was 90.7 a.u.
`CTTTCCCGATCTTGCTATGTGGGTGTAGCACATTTG` has a fluorescence intensity of 83.6 a.u.
The fluorescence intensity of `TTCCAAATCCTTCTCCTCGTGGACCCCTTGGGCGAT` is reported as 64.3 a.u.
The fluorescence intensity of `CCTTAGTTGGGTCTGCATGTGGGCAGGATCTACCAA` is reported as 85.4 a.u.
With `GCGCGAACAAACTTGGTCATGACAGCTCCACCGGCA` the fluorescence intensity was 54.4 a.u.
The fluorescence intensity of `GCAGCTGACAGAAAACATGTGCTTTGACTTGGGGAC` is reported as 206 a.u.

Series 2 — technique: universal PBM; form: double-stranded DNA, one strand shown; medium: in vitro; concentration: not given; reading: higher = stronger binding
Target: Sal-like protein 4, full length isoform B (SALL4, Homo sapiens, UniProt Q9UJQ4-2, residues 1-616)
Setting: 8-mer, flanks averaged, mean of replicates
Target sequence (chain): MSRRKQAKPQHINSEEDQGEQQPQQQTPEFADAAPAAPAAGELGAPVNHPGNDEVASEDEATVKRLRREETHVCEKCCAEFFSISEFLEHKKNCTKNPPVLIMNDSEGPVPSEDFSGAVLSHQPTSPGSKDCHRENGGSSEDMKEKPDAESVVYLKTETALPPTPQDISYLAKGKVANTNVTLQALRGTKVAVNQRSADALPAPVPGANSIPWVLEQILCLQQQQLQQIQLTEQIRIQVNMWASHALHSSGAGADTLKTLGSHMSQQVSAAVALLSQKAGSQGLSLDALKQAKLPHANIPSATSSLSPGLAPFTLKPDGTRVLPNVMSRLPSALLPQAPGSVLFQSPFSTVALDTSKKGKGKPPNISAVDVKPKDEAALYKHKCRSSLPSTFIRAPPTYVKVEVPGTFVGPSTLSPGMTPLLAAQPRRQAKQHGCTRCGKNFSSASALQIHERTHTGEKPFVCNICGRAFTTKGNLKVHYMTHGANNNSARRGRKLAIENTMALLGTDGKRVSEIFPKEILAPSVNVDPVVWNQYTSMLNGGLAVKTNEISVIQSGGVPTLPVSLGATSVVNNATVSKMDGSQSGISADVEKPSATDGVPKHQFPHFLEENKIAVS
`AAAAGAGG` gave an E-score of 0.0208.
`CTGGTGTA` has an E-score of -0.0381.
For `GCAACTGA`, the E-score was -0.155.
`CCACGAGG` gave an E-score of -0.211.
`AACCCAAC` has an E-score of -0.0689.
With `AATTACAG` the E-score was 0.255.
`GCCATTCC` gave an E-score of -0.237.
For `ACTAGGGA`, the E-score was -0.0792.

Series 3 — technique: protein-binding microarray; form: double-stranded DNA, one strand shown; medium: in vitro; concentration: 250 nM; setting: 60-bp whole probe; added: salmon DNA 0.4 mg/ml; reference: random background probes; reading: higher = stronger binding; shared flanks, not repeated: GCCTAGCAC … GTCTTGATTCGCTTGACGCTGCTG
Target: Interferon regulatory factor 5, full length, phosphomimetic (IRF5, Homo sapiens, UniProt Q13568-2, residues 1-514, K96S/S451D/S453D/S456D/S462D)
The log fluorescence of `GACAGACTGCTTCTCCTGACGTGCTAG` is reported as -0.278 z-score.
With `TTAGATATCAGTTTAGATTAGTGCTAG` the log fluorescence was 2.06 z-score.
`TCACTTTTCTTTTCTTTACTGTGCTAG` gave a log fluorescence of 2.31 z-score.
The log fluorescence of `TCTGATTTCTCAAACAGCTCGTGCTAG` is reported as 0.422 z-score.
`GACGATTTCAGATCCGAGACGTGCTAG` has a log fluorescence of 0.319 z-score.
With `TTTCCTCTTTCTTTGCTTCAGTGCTAG` the log fluorescence was 4.36 z-score.
With `GACGGTTTCGGGACTGCGGACGTGCTA` the log fluorescence was 5.13 z-score.
For `GCCGGTTTCCTACTGCTGACGTGCTAG`, the log fluorescence was 0.283 z-score.
The log fluorescence of `GTGTTTTGCCCTATTTAAGAGTGCTAG` is reported as 0.692 z-score.
With `GACGGTATCGACTATAGGGACGTGCTA` the log fluorescence was 2.28 z-score.
`CACGGTTTCCTTCTCCTGACGTGCTAG` gave a log fluorescence of 0.692 z-score.
`GCTGGTCTCTAACTCAAGATGTGCTAG` gave a log fluorescence of -0.348 z-score.
`TTAGGTTTCGACACTGGATTAGTGCTA` has a log fluorescence of 5.94 z-score.

Single results of other studies
`PhoQ, residues 284 288 289 292 302 303 WVSSAF` has a fold induction of 15.7 (PhoP, residues 12 14 15 18 19 NQFFI (Escherichia coli, UniProt P23836); Sort-seq, item: YFP reporter; E. coli; PhoQ-PhoP variant library, added: 10 µM Mg2+; reference: high Mg2+ state, higher = stronger signaling).
